Published values pooled from the literature.
Parts stem from different laboratories: compare values within a part only.

Block 1
Target: RNA binding protein fox-1 homolog 2, RRM domain, GST-SBP tag (RBFOX2, Homo sapiens, UniProt O43251-10, residues 100-194)
Technique: RNA Bind-n-Seq
Form: RNA
Matrix: in vitro
Concentration: 365 nM
Setting: natural RNA segment, single round, ends assumed
Reference: no-protein control
Direction: higher = stronger binding
Quantity: RBNS enrichment (R)
All sequences stand within: GGGAGUUCUACAGUCCGACGAUC … UGGAAUUCUCGGGUGCCAA
Sequence = GAAAGGAAGUGAAAGGUAAAUAGUCACCUACGGUCCUAGGAACCAUGCCUGCCACCUAACCACCUACCUGCCUUAGGCCAUAGCCUGGCCUGUGCCCCUAAACACUACAU; value = 0.941
Sequence = CAUUCUCUUUGUAGCUGAGUGCGUGGCUUUGAAAGUUGUGGAGGAAUUAAUACAGACACCAGAUUUUAGGCUUUGAAUUUGUUCUUAGUUGUUCAUUCCAGUCCUCUAAG; value = 0.815
Sequence = AUAUAAAGCACAAUUACUAUAUUUCACAGUUUUUGCUAAUAGAAAAUGCUGAUUCUGAUUCUGAGAUCAAUUUGUGGGAAUUUUACAUAAAUCUUUGUUAAUUACUGAGU; value = 0.54
Sequence = AGUGUGAGCGAGAGUGUGUGUGUGUCCAUCUAAGUGUGUGUGAUGAAGGUGGGAUAAGGCUCCUCUGUUAGUGCUGGAAGCUCCUGUAAUUGCCGCAUGGAUCCCACUGU; value = 7.14
Sequence = CAUCCCAGGCUUGCUGUGUCUCACUGUCCCCACCCUCCUUCCCUACUUCUUUUUUUGUGUGUCUGGUUUCUCCCUUCCUUUCCUCCCUUUGGGUUUCCAGAGUCGGUGGG; value = 0.766
Sequence = CUAUGGUGUGGAGUGGUGGCAGAAGACUCUGAAAGGGAAGAAAUUGGCAAAGCUGCAGCUUUUUCCUGCAUUUGGUCCCAUAAUCUUAAUAGAAACAAUUUCCUAUUACA; value = 0.474
Sequence = UUCCACAGGCCAUAAGAUUUUCUUCUGAGAAGAAUUUGUGUUUAAUUUUUUGAUACCAACACUGAACAUUCAUCAGGGAACUUUCCUGAAGUUCAGCUCAAGACUACCCU; value = 0.576
Sequence = CCUGAGUGUUUGCUUUCGGUUUGUUGGUAUGCCUGUAUUGCUGGGCUGUGCUGCUGCUCGAAGCAGAUGGUUUUGACUGUCUUUUUGCUCUUUCCUAUAUAAUGAAUAGA; value = 0.655

Block 2
Target: Prothrombin, mature alpha-thrombin (F2, Homo sapiens, UniProt P00734)
Technique: aptamer microarray, sandwich
Form: DNA with 2'F-ANA
Matrix: in vitro
Concentration: 200 nM
Setting: whole 15-mer aptamer, many near background
With: Cy3 exosite-II aptamer, 400 nM
Direction: higher = stronger binding
Quantity: mean fluorescence intensity
Sequence: GGTTGGTGTGGTTGG
Modification = 2'F-ANA at 1 2 3 5 9 13 15; value = 50.7 a.u.
Modification = 2'F-ANA at 3 5 7 8 10 11 14; value = 54.9 a.u.
Modification = 2'F-ANA at 1 2 3 4 6 7 9 10 11 12 13 15; value = 81.4 a.u.
Modification = 2'F-ANA at 3 5 8 10 14; value = 48.6 a.u.
Modification = 2'F-ANA at 3 7 8 10 12 13 15; value = 693 a.u.
Modification = 2'F-ANA at 2 5 6 9 10 12 13 14; value = 45.9 a.u.
Modification = 2'F-ANA at 2 3 7 8 10 13 15; value = 402 a.u.
Modification = 2'F-ANA at 1 2 4 5 6 7 9 11 12; value = 86.3 a.u.

Block 3
Target: Sal-like protein 4, full length isoform A (SALL4, Homo sapiens, UniProt Q9UJQ4, residues 1-1053)
Chain of UniProt Q9UJQ4 (whole entry, looked up): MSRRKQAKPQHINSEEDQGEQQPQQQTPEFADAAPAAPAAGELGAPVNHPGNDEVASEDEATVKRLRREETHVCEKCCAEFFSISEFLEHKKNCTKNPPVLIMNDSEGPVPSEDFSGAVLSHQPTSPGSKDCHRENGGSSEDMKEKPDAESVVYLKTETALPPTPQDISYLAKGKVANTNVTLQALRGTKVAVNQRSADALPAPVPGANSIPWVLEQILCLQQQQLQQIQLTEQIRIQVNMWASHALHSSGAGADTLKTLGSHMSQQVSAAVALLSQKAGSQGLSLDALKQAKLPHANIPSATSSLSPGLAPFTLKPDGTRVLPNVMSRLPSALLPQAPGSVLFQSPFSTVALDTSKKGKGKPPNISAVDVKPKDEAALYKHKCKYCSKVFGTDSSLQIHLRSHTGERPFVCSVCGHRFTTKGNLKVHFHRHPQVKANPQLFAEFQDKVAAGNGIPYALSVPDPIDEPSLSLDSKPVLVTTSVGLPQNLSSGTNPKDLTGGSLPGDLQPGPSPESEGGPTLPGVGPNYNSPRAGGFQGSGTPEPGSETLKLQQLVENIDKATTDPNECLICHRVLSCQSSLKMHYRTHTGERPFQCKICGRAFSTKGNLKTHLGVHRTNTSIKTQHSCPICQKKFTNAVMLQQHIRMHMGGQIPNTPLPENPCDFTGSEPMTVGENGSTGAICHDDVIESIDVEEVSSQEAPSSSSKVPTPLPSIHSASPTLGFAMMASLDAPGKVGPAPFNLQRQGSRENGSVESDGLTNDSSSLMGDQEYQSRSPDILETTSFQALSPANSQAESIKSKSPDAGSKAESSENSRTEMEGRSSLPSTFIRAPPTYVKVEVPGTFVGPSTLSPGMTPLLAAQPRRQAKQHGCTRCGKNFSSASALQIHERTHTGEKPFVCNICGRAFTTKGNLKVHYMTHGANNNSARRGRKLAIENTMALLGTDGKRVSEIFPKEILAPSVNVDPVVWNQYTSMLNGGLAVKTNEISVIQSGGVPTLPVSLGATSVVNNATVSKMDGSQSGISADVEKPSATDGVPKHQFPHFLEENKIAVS
Technique: universal PBM
Form: double-stranded DNA, one strand shown
Matrix: in vitro
Concentration: 600 nM
Setting: 8-mer, flanks averaged, mean of replicates
Direction: higher = stronger binding
Quantity: E-score
Sequence = AGAAATTG; value = 0.32
Sequence = CTCGAACC; value = -0.215
Sequence = ATCTAGTA; value = 0.207
Sequence = TATGCAGA; value = 0.257
Sequence = ATTCCATA; value = 0.284
Sequence = AAGGTTCG; value = -0.126
Sequence = AGGTACGG; value = -0.32
Sequence = CGCAGTAC; value = -0.218

Block 4
Target: Interferon regulatory factor 5, full length, phosphomimetic (IRF5, Homo sapiens, UniProt Q13568-2, residues 1-514, K96S/S451D/S453D/S456D/S462D)
Technique: protein-binding microarray
Form: double-stranded DNA, one strand shown
Matrix: in vitro
Concentration: 250 nM
Setting: 60-bp whole probe
With: salmon DNA 0.4 mg/ml
Reference: random background probes
Direction: higher = stronger binding
Quantity: log fluorescence
All sequences stand within: GCCTAGCAC … GTCTTGATTCGCTTGACGCTGCTG
Sequence = TTAGGACTGGGGTATCGGTCAGTGCTA; value = 1.6 z-score
Sequence = TCAGATATCGGGTTTCGATTAGTGCTA; value = 7.51 z-score
Sequence = TTAGGACCGGGTCTCGGTTAGTGCTAG; value = 0.117 z-score
Sequence = GATGAATAAAGCGTTGCTGCGTGCTAG; value = -0.225 z-score
Sequence = GACGGTATCGGATATCGGGACGTGCTA; value = 2.13 z-score
Sequence = GAATGTTTTTCATTGTTTTTGTGCTAG; value = 1.75 z-score
Sequence = GACGGTATCGGTTTAGGGACGTGCTAG; value = 6.86 z-score
Sequence = GACGGCTTCCTTATCCTGACGTGCTAG; value = -0.429 z-score
Sequence = CTAGAACTGAGACTGGATTAGTGCTAG; value = -0.248 z-score
Sequence = GACGGTCTCCTTCGCCTGACGTGCTAG; value = -0.0647 z-score
Sequence = GACGATTTCAGTTTAGAGACGTGCTAG; value = 1.66 z-score
Sequence = CTAGATTTCAGTTTCGATTAGTGCTAG; value = 10.7 z-score
Sequence = TTAGGTAGCCTTCTCCTTTAGTGCTAG; value = -0.168 z-score

For quick reference, copied from above (block 2):
Modification = 2'F-ANA at 3 5 8 10 14; value = 48.6 a.u.
Modification = 2'F-ANA at 2 5 6 9 10 12 13 14; value = 45.9 a.u.
Modification = 2'F-ANA at 1 2 3 5 9 13 15; value = 50.7 a.u.
